Values quoted from earlier work that unrelated publications cite.
Compare with care: the assays were run in different laboratories. Values joined by “and” are separate records of one study, mostly repeats; a detail may differ. ± marks the error that the study gave.

With CCCCCc1cc(O)c2c(c1)OC(C)(C)[C@@H]1CCC(C)=C[C@@H]21 the inhibitory concentration was less than 1 µM (serotonin transporter).
The MIC of O=C(NN1C(=O)c2ccccc2C1=O)c1ccncc1 is reported as 5 µg/mL (Mycobacterium tuberculosis).
CC1=C(C)C(=O)OC(C(C)(O)C2(O)CCC3(O)C4CC5OC56C(O)C=CC(=O)C6(C)C4CCC32C)C1 (stereo not shown) gave an IC50 of 2.2 µM (T47D; cell growth).
CCCC/C=C/C(=O)N[C@@H](Cc1cc(F)cc(F)c1)C(=O)OC has an EC50 of roughly 6 µM (Bacillus subtilis ClpP; peptidase activity, activator).
With CC[C@H](C)[C@H](NC(=O)[C@H](CCCCN)NC(=O)[C@H](CCCCN)NC(=O)[C@H](C)NC(=O)[C@@H](NC(=O)[C@H](C)NC(=O)[C@H](CC(C)C)NC(=O)[C@H](CC(C)C)NC(=O)[C@H](C)NC(=O)[C@H](CCCCN)NC(=O)[C@H](CC(C)C)NC(=O)[C@H](CC(N)=O)NC(=O)[C@@H](N)CC(C)C)C(C)C)C(=O)N[C@@H](CC(C)C)C(N)=O the MIC was 500 µM (Staphylococcus aureus; ATCC 12600).
CC1(C)N=C(N)N=C(N)N1c1cccc(C(F)(F)F)c1 has an EC50 of roughly 0.016 µM (influenza B virus; viral replication).
CNC1C(O)C(NC)C2OC3(O)C(OC(C)C[C@H]3NC(=O)Cc3cscn3)OC2C1O.Cl.Cl (stereo partly shown) has a post-antibiotic effect of 23 to 27 h and 27 h (Mycobacterium bovis; BCG; concentration not given).
O=C(N[C@@H]1CC[C@@]2(O)[C@H]3Cc4ccc(O)c5c4[C@@]2(CCN3CC2CC2)[C@H]1O5)c1cccc2ccoc12 has an AD50 of 0.18 mg/kg (anti-analgesic effect; Swiss Webster mice).
CCOCC1C(c2ccc(Cl)c(Cl)c2)CC2CCC1N2C (stereo not shown) gave an IC50 of 0.0065 µM (dopamine transporter; inhibitor).
With CCCCCCCC(=O)NCC(=O)N[C@@H](C)C(=O)N[C@@H](CC(C)C)C(=O)N[C@](C)(CC)C(=O)N[C@@H](C)C(=O)N[C@H](C(=O)N[C@H](CO)CC(C)C)[C@@H](C)CC the IC50 was 7 µM (LS180; cell growth, MTT).
The selectivity ratio of CCCCCn1cc(C(=O)c2ccc3c(c2)CC(C)(C)C3)c2ccccc21 is reported as 7.9 (cannabinoid receptors; baseline: Ki CB1 over Ki CB2).
Under “intraocular pressure decrease”, CCCCCc1cc(O)c2c(c1)OC(C)(C)C1CCC(C)=CC21 (stereo not shown) is recorded as roughly 6 mmHg (rat with ocular hypertension; 5 mg/kg).
CCC1(CC)C2CC3CC(C2)CC1(NC)C3 gave an EC50 of 4 µM (Influenza A virus; viral replication; A/PR/8/34 H1N1).
With O=C(NN1C(=O)c2c(F)c(F)c(F)c(F)c2C1=O)c1ccncc1 the MIC was 1.15 µg/mL (Mycobacterium tuberculosis; H37Rv).
CC1=C(C)C(=O)OC(C(C)(O)C2(O)CCC3(O)C4CC5OC56CC=CC(=O)C6(C)C4CCC32C)C1 (stereo not shown) gave an IC50 of 3.91 µM (MCF7; cell growth).
CCc1ccc(Oc2ccccc2)c(O)c1 has an IC50 of 2 ± 0.7 µM (InhA; inhibitor).
